Assay results collected from several papers.
Parts stem from different laboratories: compare values within a part only.

Block 1
Target: Prothrombin, mature alpha-thrombin (F2, Homo sapiens, UniProt P00734)
Technique: aptamer microarray, sandwich
Form: DNA with 2'F-ANA
Medium: in vitro
Concentration: 200 nM
Setting: whole 15-mer aptamer, many near background
With: Cy3 exosite-II aptamer, 400 nM
Reading: higher = stronger binding
Strand: GGTTGGTGTGGTTGG
Modification | mean fluorescence intensity [a.u.]
2'F-ANA at 2 3 5 7 8 9 10 13 | 82.8
2'F-ANA at 1 2 5 7 8 9 10 11 13 | 50.6
2'F-ANA at 1 2 5 6 8 9 11 12 13 | 77.5
2'F-ANA at 3 4 7 8 10 12 13 14 15 | 207
2'F-ANA at 4 7 9 10 11 12 13 14 15 | 60.7
2'F-ANA at 3 4 7 8 9 12 13 15 | 608
2'F-ANA at 3 5 8 9 11 12 13 15 | 175
2'F-ANA at 5 7 10 13 15 | 46.5
2'F-ANA at 2 3 6 8 10 11 15 | 336
2'F-ANA at 3 5 6 8 12 13 | 203
2'F-ANA at 2 4 5 6 8 | 72.4
2'F-ANA at 1 3 4 5 6 7 8 9 10 13 15 | 43.5
2'F-ANA at 1 2 4 5 7 8 11 12 13 15 | 72.3
2'F-ANA at 2 3 4 5 6 8 9 10 12 13 14 15 | 62.6
2'F-ANA at 4 8 14 15 | 110
2'F-ANA at 2 3 7 8 9 13 14 | 425
2'F-ANA at 7 10 13 | 158
2'F-ANA at 1 2 3 4 7 9 10 | 60.5
2'F-ANA at 1 3 4 5 6 9 10 12 13 14 15 | 66
2'F-ANA at 2 4 5 7 10 14 | 47.4
2'F-ANA at 2 3 4 6 8 11 | 515
2'F-ANA at 1 2 3 5 6 8 10 12 13 15 | 117
2'F-ANA at 3 4 6 7 9 10 12 13 14 15 | 189
2'F-ANA at 2 4 5 9 10 12 13 14 | 45.2
2'F-ANA at 1 3 4 6 8 10 13 14 | 47.4

Block 2
Target: Fragile X messenger ribonucleoprotein 1, C-terminal low-complexity region (Fmr1, Mus musculus, UniProt P35922)
Technique: RNA Bind-n-Seq
Form: RNA
Medium: in vitro
Concentration: 200 nM
Setting: whole 134-nt RNA, ends assumed
With: 150 mM LiCl
Baseline: input library
Reading: higher = stronger binding
All molecules: 7-deaza-guanosine replaces G
All sequences stand within: GGGAGUUCUACAGUCCGACGAUC … UGGAAUUCUCGGGUGUCAAGG
Strand | log2 enrichment
UCCUCAAGUCCUGUGCUACACAUCGUAUGUACCGAAUCGGUGGAGGAAAGGAAAGUAUUAUGUUACGCCGUUCGGAUCUGCACUUCCAGC | -0.241
UAUCUUUAGAGGAGGAUCUGAUGGAUAUGGCAGUGGACGUGGAUUUGGGGAUGGCUAUAAUGGGUAUGGAGGAGGACCUGGAGGUGGCAA | 0.0452
UGGGAGGUGGAUUUUGUUUAUUUUUUUAGCUCAUUUCCAGGGGUGGGAAUUUUUUUUUAAUAUGUGUCAUCAAUAAAGUUGUUUUUGAAA | 0.631
UGGUGGACCCGCAGCAGCUGGGCAUGUUCACGGAGGGCGAGCUGAUGUCGGUGGGUAUGGACACGUUCAUCCACCGCAUCGACUCCACCG | -3.12
UAACUUUAGAGGAGGAUCUGGUGGAUAUGGCAGUGGACGUGGAUUUGGGGAUGGCUAUAAUGGGUAUGGAGGAGGACCUGGAGGUGGCAA | 0.461
UGCUGCUUUCUGCCUUGGUGGCAGGCAGAGAACUGUCUCGUACUAGAAUUCAAGGAGGAAAGAAGAAGAAAUAAAAGAAGCUGCUCCAUU | -0.191
UACCAUGGUGGAAGUUCCCGUUCUCGUAGCAGUAUUUUCCAUGCAGGAAAAAGCCAAGGACUACAUGAAAACAACAUACCUGACAAUGAA | 0.387
UGGCCCUGGUGGCAUGCGGGGAGGAAGAGGUGGCCUCAUGGAUCGUGGUGUUCCCGGUGGAAUGUUCAGAGGUGGCCGUGGUGGAGACAG | -0.167

Block 3
Target: RING finger protein unkempt homolog, zinc fingers 1-6, GST-SBP tag (UNK, Homo sapiens, UniProt Q9C0B0, residues 30-357)
Technique: RNA Bind-n-Seq
Form: RNA
Medium: in vitro
Concentration: not given
Setting: RNA with constant flanks, human and mouse sites, ends assumed
Baseline: input RNA pool
Reading: higher = stronger binding
All sequences stand within: GGGAGUUCUACAGUCCGACGAUC … CAACAGAGGAUUGAGCAUCA
Target sequence (chain): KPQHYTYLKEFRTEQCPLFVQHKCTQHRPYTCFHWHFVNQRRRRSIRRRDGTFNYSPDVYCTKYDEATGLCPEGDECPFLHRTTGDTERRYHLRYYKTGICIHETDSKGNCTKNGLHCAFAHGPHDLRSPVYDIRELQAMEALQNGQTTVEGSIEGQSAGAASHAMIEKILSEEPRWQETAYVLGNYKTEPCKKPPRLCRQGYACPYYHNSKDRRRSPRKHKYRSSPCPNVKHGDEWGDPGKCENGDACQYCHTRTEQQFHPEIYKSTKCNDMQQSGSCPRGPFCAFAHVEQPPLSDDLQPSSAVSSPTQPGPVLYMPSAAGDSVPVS
Strand | bound/input enrichment
ACCACAGUUAUCCAAAAUGUAAAUAAAGCCCAAGUGAAGAUCAGAGCAAAGAAAGACAAUGUAGCAGGUGUUACCUUGCCAGUGUUUGAACAUUACCACGAAGGAACUGACAGCUAUGAA | 0.204 ratio
UUAAAUAUCUCUGGCUCAAGUGUUCACCCAGUAAAAGAAAGAUCCAGAAAGCACUGUUUUUAGCAUUACGUAUCUGUGUGUUACUGCUGUGUUAUUUACACUGUUUUGUAUUGUACAAUA | 0.113 ratio
CACAAGUUGGAAGAAGCCUUACUGUUUUCAGGCCAGUUCAUGGAUGCUUUGCAGGCUUUAGUUGACUGGUUGUACAAGGUGGAGCCACAGUUGGCUGAGGACCAGCCUGUACAUGGGGAC | 0.116 ratio
GGCCAGGCUUUUGAGCUGAUCUUGAAGCCACCAUCUCCUAUCUCAGAAGCCCCACGAACUUUAGCUUCUCCAAAGAAGAAAGACCUGUCCCUGGAGGAGAUCCAGAAGAAACUGGAGGCU | 0.121 ratio
UGCUGUAUGUUGGAGUAUCCAAAAAGAUUGUAUACAAAAACUAACAAACAGAAAAGUGAACUUUGUAAAUGUAUAGAAACAGUUCAUCAAGAUUCAUGUAAUGCCUGCUUUCCUCAGCAG | 0.156 ratio
ACAGCCAUGGCAACUAGUCUCACGAACGUAGGAAAUUCAUUUAGUGGCCCACCUAAUCCUUUAGUGUCUAGAUCUAGUAAGUUUCAGAACUCAUCAGUAGAAGAUGAUGAUGACGUUGUU | 84.1 ratio
GAGGCCCUAGCCAGUCCACAGAUUGUAGCGGCAUUCACCUCUCAGGCUGUAGAUCAGUCCAAAGUGUUUGUGAAGGUGUUUACUGAAAUUGACCGGAUGCCCCAGCUCCUGGCCUACUAC | 0.0662 ratio
GGCUUUAAGUCUGUUGGGAAGCCAUAAGCCCUUGAUUCUGCAGCAUGAAAACCUAGAAACCAUAGUUGACUUUAUAAAAAGCACGCUACCCAACCUUGGCUUGGUACAGAUGGAAAAGAC | 1.61 ratio
AGAUUAAGAUUCAAUCAUUUUGCUACAGAAUGUAGCUGGGAUCAUAUGUAUGUUUAUGAUGGAGAUUCAAUAUAUGCACCUUUAAUAGCUGUACUUAGUGGUUUGAUAGUCCCUGAAAUA | 0.561 ratio
AUCCGCAGGGAGAAGGACCAGUUCAAGGUGCCUCGGGACUGAGGCACACCCACGCUGGGACAGGGACUUCUAACCGACUGGCCUGCUGCUAAUGCAGGACAGUCUACUUUUCAGUUAAUU | 0.103 ratio
GUUCACCAGAUUGAUGCAGUGCUGUUGUCUCACCCUGAUCCUCUCCACCUUGGUGCCCUCCCGUAUGCUGUCGGAAAGUUGGGUCUGAACUGUGCUAUCUAUGCAACCAUUCCUGUUUAU | 0.226 ratio

Block 4
Target: Histone acetyltransferase KAT6A, winged helix 2, GST fusion (KAT6A, Homo sapiens, UniProt Q92794, residues 85-181)
Technique: protein binding microarray
Form: double-stranded DNA, one strand shown
Medium: in vitro
Concentration: not given
Setting: 8-mer, flanks averaged, mean of 2 arrays, mostly near background
Baseline: not given
Reading: higher = stronger binding
Construct (chain): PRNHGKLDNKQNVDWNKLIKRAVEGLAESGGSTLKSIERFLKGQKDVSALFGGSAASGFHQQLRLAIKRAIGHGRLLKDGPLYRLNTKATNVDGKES
Strand | E-score
ATTAGTGG | 0.0676
CAAGCGAG | 0.115
ATCACCAA | -0.0539
ACAGTTAC | -0.048
ACTGCCGC | 0.279
CTGCAAAG | 0.14
GCACACCA | -0.0441
AACCTCGA | 0.166
CGCCGGAC | 0.148
GGCGACAC | 0.0876
AGATATAT | -0.0381
GACCATGC | 0.08
GACATTAA | -0.0855
ATGATTGA | -0.0441
CCAGTCGC | -0.0923
GAATACAC | -0.045
AGTATGAC | -0.148
TGAAACAA | 0.114
CCGGCTCA | 0.253
ACTTGAAC | -0.101
AGGACCTC | -0.0599
TATGGGGA | -0.00177
GGCCAGAC | 0.0662
AGAAGTAT | 0.02
CAATAATC | -0.126
